Measured values of several laboratories.
Numbered parts are unrelated; each lists some results of a single study. Positions count from the first letter of the parent shown.

Series 1
Target: Phosphate system positive regulatory protein PHO4, full length, GST-tagged (PHO4, Saccharomyces cerevisiae, UniProt P07270, residues 1-312)
Technique: competition protein-binding microarray
Molecule type: double-stranded DNA, one strand shown
Sample: in vitro
Concentration: 2 µM
Setting: whole 60-bp probe, lowest competitor level
Together with: Cbf1 competitor, 0.05 µM
Reading: higher = stronger binding
All sequences stand within: … GTCTTGATTCGCTTGACGCTGCTG
Target sequence (chain): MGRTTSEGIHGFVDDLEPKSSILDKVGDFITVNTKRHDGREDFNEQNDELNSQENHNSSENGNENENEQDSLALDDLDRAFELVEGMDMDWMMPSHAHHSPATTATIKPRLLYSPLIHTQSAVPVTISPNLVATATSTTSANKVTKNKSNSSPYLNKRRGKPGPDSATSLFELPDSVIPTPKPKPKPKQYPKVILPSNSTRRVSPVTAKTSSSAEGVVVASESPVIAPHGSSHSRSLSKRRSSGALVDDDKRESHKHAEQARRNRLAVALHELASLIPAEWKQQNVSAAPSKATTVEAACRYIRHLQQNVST
| Oligonucleotide | fluorescence intensity [a.u.] |
| --- | --- |
| AAAAGCAACTCGACCGTCGTGGGTACAATCCCCACC | 6800 |
| CGTCCTAGTGATTGTCACTCGACTTCCATGAGGAAG | 3960 |
| AAAGCGGTAATTTGTCACTACACTTCACATATCTAT | 3410 |
| TGAAATGGAATCGACCACGGGTCTTATTGAAAGCGG | 8090 |
| CATACCCAACCTTGTGGTGTGGGTGAAGATATTTGT | 7220 |
| AAATTACTAAGTTGCCACGTGTTTTACCCCGTATGA | 18500 |
| CGGGGTTAAGTTTTTCACGTGGTATGCTTGCAGCAG | 14300 |
| TGAAAAGTTACGGATCAGGCTTTAACCACCGTAGAC | 2820 |
| CTTTCCCGATCTTGCGGTGTGGGTGTAGCACATTTG | 5920 |
| CGTCCTAGTGATTGCCTCGTGGGTGCCATGAGGAAG | 13300 |
| GTTTGGTCCTATCAACATGTGCCGAGAATTGTCGGA | 12200 |
| GGTGCCTTATTTCCGCACGTTTTTCAACATACGGCT | 13100 |
| CTCTAATCCCACCACCACATGCCACACTCACCCTCA | 13400 |
| GCTGCTAACGATCAACACCTGACCGAGATAACAGCA | 4050 |
| TTTGGAAATGCTCACCACGGGAATATGCAAAAAAAA | 6610 |
| AAAGCGGTAATTTTTCACGTGCGGTCAAATATCTAT | 12900 |
| TCGAACAGCCAAGTTTGCGTGGTTACAAGATAAAAT | 5700 |
| AAATTACTAAGTTGGAAGGTGGGTGACGCCGTATGA | 4610 |
| TACTTGGTAAGTACCCACGCAGCCAATAGTGTCTCG | 7400 |
| AAGACCTATTTCTCAGACGTGCTAATCTCCCGTCAA | 5080 |
| CGTCCTAGTGATTGCAACGTGGGTGCCATGAGGAAG | 14400 |
| CATACCCAACCTTGAGCTGTGGGTGAAGATATTTGT | 3840 |

Series 2
Target: Histone acetyltransferase KAT6A, winged helix 2, GST fusion (KAT6A, Homo sapiens, UniProt Q92794, residues 85-181)
Technique: protein binding microarray
Molecule type: double-stranded DNA, one strand shown
Sample: in vitro
Concentration: not given
Setting: 8-mer, flanks averaged, mean of 2 arrays, mostly near background
Baseline: not given
Reading: higher = stronger binding
Residues (chain): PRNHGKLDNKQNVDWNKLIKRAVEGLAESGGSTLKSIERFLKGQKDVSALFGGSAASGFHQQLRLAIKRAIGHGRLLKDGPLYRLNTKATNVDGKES
| Oligonucleotide | E-score |
| --- | --- |
| CTCGATTA | 0.075 |
| CGTCAGAG | -0.0704 |
| AGGTAATG | -0.082 |
| ATGAAAGA | -0.0164 |
| AAGTCATC | -0.089 |
| TCAAAGGA | -0.146 |
| CATTAACA | -0.0896 |
| AGCGCCGG | 0.19 |
| CCTTAAGA | -0.152 |
| CGTTAGAG | -0.129 |
| CAGGTTCG | 0.0112 |
| GAGGTGCA | 0.0763 |
| AACGCTGT | -0.121 |
| ACTCCAAG | 0.00728 |
| ATGGGAGG | -0.0499 |
| AACTATTA | -0.0708 |
| AATAAGAC | -0.143 |
| ATGAATCA | 0.0688 |
| AATGTGGA | -0.0912 |
| TCAGGCAA | -0.0469 |
| AAGAAATG | 0.0784 |
| CCTAGCTC | 0.0239 |

Series 3
Target: RNA binding protein fox-1 homolog 2, RRM domain, GST-SBP tag (RBFOX2, Homo sapiens, UniProt O43251-10, residues 100-194)
Technique: RNA Bind-n-Seq
Molecule type: RNA
Sample: in vitro
Concentration: 365 nM
Setting: natural RNA segment, single round, ends assumed
Baseline: no-protein control
Reading: higher = stronger binding
All sequences stand within: GGGAGUUCUACAGUCCGACGAUC … UGGAAUUCUCGGGUGCCAA
Target sequence (chain): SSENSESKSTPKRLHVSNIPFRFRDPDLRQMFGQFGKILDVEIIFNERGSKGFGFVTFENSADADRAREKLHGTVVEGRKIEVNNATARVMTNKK
| Oligonucleotide | RBNS enrichment (R) |
| --- | --- |
| CUUUGAGUAGGACAACAAGGAACAUUAAAGAAGGAAAGUUCUAGAACAAUCUUUUGCUAAAAAAAAAAAAAAAGAAAGAAAUUGCUUUAUGGUGAAAACUGUGGGAAGGG | 0.732 |
| UAGCAGAUGCCGCAACUCCACACAGUGUGUAAAAUAUAUACAACCAAAAAUCAGCUUUUGCAGGUCUUUAUUUCUUCUGUAAAACAGUAGGUAACUUUUCCUAGGUUUCA | 0.416 |
| ACAGUAUAACCAUGUAGCCAAUUGUGGCCCACUAAAAUCUACAGAAGUUAAUGUGGGUCACCAUUUUGGUCAGAAGCAUACAUUCCUGUCAGACAACUAGUUGUCUGACA | 0.354 |
| UCAUAGUGAUGAAGGACAGCACUGCAGACAUCUCCCUUGCCAUCUCUAGCCUGCUGUGGAAGGAAACAACGUGACUCAAGAUGAAGCUGUUUGUAUGUAUCCUUAUCAAA | 2.48 |
| UUUUCUCUGCCACGGCAGCGCAAUGCAAAGAGCAGACAUGGCCUCUUGCUUCUCUUCACAGCCAUAGGAUAAUGAAUACUCAGGCCUGUUUGUUAAAAUGCUAUUUUUAA | 0.36 |
| GCAAAGCCUGGGACAUUUGCAAUAGCAAGCACCCUCUGUAGUCUCCUGCAGAGCCAUAGCUUCAAUGUUCUAAGAUCACUGUGACUGGUCAGGAGGACAGGACGCUGCUU | 0.442 |
| CUUCUGGGGACUUGGCUGCCAAGUGAUAAAAACGUUAACGACCUUUAAGUACUCUUCCAGAUGAGAGCUCUUCUACCUUACGUCCAAGAUCUGUAUAUGUGGGAACAAAU | 0.442 |
| UGGUGACCUCCCCCACCAUCUUGUCUCACUUGGAAACCGUUGUCAGUUUAUUUACUAUGCAAUAGACAUUCAUUGUUUUGUAUCCAGCUAGCUUUGGUUUAAUAUGCCAC | 0.377 |
| CUUAUGUGACAUUUUGCCUUAAGAAUAUAAAAGUGCUUUAGCACUGAUGGCUGGCAUUUUUAAUAUAGGCAGUGAAAGUGACUUUAGAAGCAUGGGAUGAAAUAGAGGGA | 0.793 |
| AAACAUUAAUGCUUAGAAUUCUGAGAUCCAGCACAACUCAGUCUGUGGGAGCUCAGCUCGCUGCCCAGGGAUAGGUAUGACCUAUGUCUGCCUUAGGCUGCUGGGAGAUG | 0.444 |
| UUUUCUCUGCUUCCUCAGCCCAGGAAGAACUUGUGUUGCAUUGGCUGUGAGAGCGGGAUGGGGACGACAUGAAUCACAGCUUUGCUGUGAGCUUUCUCUCGUGCAGUUUC | 0.364 |
| GCUGGCAUGCUUGCAGCACAUGUCCAUUAAAGGUCAUUUUGUUUAUUUGUUGGCAUGCUUACAACACAUGUCCAUUAAAGUUCAUUUGGUCCUUUUAUUUUCAUUGUUUU | 12.5 |

Series 4
Molecule: REASKSRVQLFKDDPM
Effect on: yeast growth
Technique: competitive growth deep sequencing
Molecule type: peptide
Organism: Saccharomyces cerevisiae
Setting: peptide tiling library
Reading: direction not given
| target | enrichment score |
| --- | --- |
| human cyclin E2-Cln2 fusion | -1.93 |
| human cyclin B1-Cln2 fusion | -0.379 |
| human cyclin F-Cln2 fusion | 0.0583 |
| human cyclin E1-Cln2 fusion | -1.99 |

Series 5
Target: ABI1, truncated, D143A, DHFR fusion (Arabidopsis thaliana)
Technique: DHFR PCA, deep sequencing
Sample: yeast
Setting: methotrexate growth selection, single substitutions
Together with: (+)-ABA 0 µM
Baseline: wild-type fitted maximum
Reading: higher = stronger binding
Parent: PYL1, truncated, DHFR fusion (Arabidopsis thaliana); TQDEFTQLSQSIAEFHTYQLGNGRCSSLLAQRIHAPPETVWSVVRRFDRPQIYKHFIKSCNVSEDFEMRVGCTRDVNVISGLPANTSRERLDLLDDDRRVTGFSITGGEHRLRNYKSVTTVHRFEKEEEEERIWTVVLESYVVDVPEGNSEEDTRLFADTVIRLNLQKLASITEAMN; partner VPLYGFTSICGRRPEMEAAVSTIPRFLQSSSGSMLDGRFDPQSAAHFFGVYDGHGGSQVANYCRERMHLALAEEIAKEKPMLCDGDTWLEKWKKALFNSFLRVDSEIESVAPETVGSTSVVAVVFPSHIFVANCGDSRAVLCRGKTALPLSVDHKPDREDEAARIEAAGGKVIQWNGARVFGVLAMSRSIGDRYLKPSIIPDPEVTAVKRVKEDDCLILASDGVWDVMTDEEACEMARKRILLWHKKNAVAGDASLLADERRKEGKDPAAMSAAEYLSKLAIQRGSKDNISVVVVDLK
| Change | relative binding score |
| --- | --- |
| N165W | 5.23% |
| D3R | 16.1% |
| D75W | 20% |
| R99F | 58.5% |
| L91V | 1.16% |
| N149L | 26.7% |
| E64L | 1.94% |
| A175N | 16.3% |
| D153S | -1.22% |
| L20K | 44.9% |
| S26M | -1.38% |
| I105A | -4.89% |
| I133V | 55.4% |
| F15N | -6.07% |
| V100I | 13.3% |
| A30N | 0.544% |
| T39S | 5.16% |
| R45C | 2.33% |
| K58T | 8.32% |

For quick reference, copied from above (series 5):
| Change | relative binding score |
| --- | --- |
| D75W | 20% |
| T39S | 5.16% |
| A175N | 16.3% |
| D153S | -1.22% |
| A30N | 0.544% |
| L91V | 1.16% |
| L20K | 44.9% |
| N149L | 26.7% |
| R45C | 2.33% |
| I133V | 55.4% |
| I105A | -4.89% |
